Published values from different studies.
Lines come from different studies, so protocols differ.
Organism: Pseudomonas aeruginosa

Compound | test | system | setting | MIC
CC(C)[C@H](NC(=O)[C@@H](NC(=O)[C@H](CCCCN)NC(=O)CNC(=O)[C@@H](NC(=O)[C@@H](NC(=O)[C@H](CO)NC(=O)[C@@H](NC(=O)[C@@H](NC(=O)[C@@H]1CCCN1C(=O)[C@@H](NC(=O)[C@@H](NC(=O)CN)C(C)C)C(C)C)C(C)C)C(C)C)C(C)C)C(C)C)C(C)C)C(N)=O | broth microdilution | – | – | > 100 µM
CC(C)[C@@H]1NC(=O)[C@@H]2CCCN2C(=O)[C@@H](C)NC(=O)[C@H](CO)NC(=O)[C@H](C)NC(=O)[C@H](C(C)(C)C)NC(=O)[C@H](CCO)NC(=O)[C@H](Cc2c[nH]c3ccccc23)NC(=O)[C@H](CCO)NC(=O)[C@@H](CCN)NC(=O)[C@H](CCC(N)=O)NC(=O)[C@H](CCN)NC(=O)[C@H](Cc2ccc(O)cc2)NC(=O)[C@H]([C@@H](C)O)NC1=O | broth microdilution | NDM1, NRZ 08418, CAMHB with polysorbate-80 | 16 h, 37 °C, together with: 0.002% polysorbate-80 | > 64 µg/mL
CC[C@H](C)CCCCC(=O)N[C@@H](CCN)C(=O)N[C@H](C(=O)N[C@@H](CCN)C(=O)N[C@H]1CCNC(=O)[C@H]([C@@H](C)O)NC(=O)[C@H](CCN)NC(=O)[C@H](CCN)NC(=O)[C@H](CC(C)C)NC(=O)[C@@H](CC(C)C)NC(=O)[C@H](CCN)NC1=O)[C@@H](C)O | – | BAA-2797, multidrug-resistant | – | 4 µg/mL
CCCCCCCC(O)CC(=O)N[C@H](CCN)C(=O)N[C@H]1CCNC(=O)[C@H](CC(C)C)NC(=O)[C@H](CCN)NC(=O)[C@H](CCN)NC(=O)[C@H](CC(C)C)NC(=O)[C@@H](CC(C)C)NC(=O)[C@H](CCN)NC1=O (stereo partly shown) | broth microdilution | ATCC 27853, polymyxin susceptible, CAMHB | 18 h, 37 °C | 2 µg/mL
CCCCCCCC[C@H]1NC(=O)[C@H](CCN)NC(=O)[C@@H](NC(=O)[C@H](CCN)NC(=O)[C@@H](NC(=O)[C@H](CCN)NC(=O)c2ccc(-c3ccccc3)cc2)[C@@H](C)O)CCNC(=O)[C@H]([C@@H](C)O)NC(=O)[C@H](CCN)NC(=O)[C@H](CCN)NC(=O)[C@H](CC(C)C)NC1=O | – | FADDI-PA070, CaMHB | 18 h, 37 °C | 2 µg/mL
CC1C(=NNC(=O)c2ccncc2)C(C)C(c2ccc(Cl)cc2)OC1c1ccc(Cl)cc1 (stereo not shown) | microbial growth, broth dilution | MTCC741 | 24 h | 25 µg/mL
CCCCCCCCCC(=O)NCCCC[C@H](NC(=O)[C@H](CCCCN)NC(=O)[C@@H]1CSCC(=O)N[C@@H](CCCCN)C(=O)N[C@@H](CC(C)C)C(=O)N[C@@H](CCCCN)C(=O)N[C@H]2CCCCNC(=O)[C@H](CCCCN)NC(=O)[C@H](CC(C)C)NC(=O)[C@H](CCCCN)NC(=O)CSC[C@H](NC(=O)[C@H](CC(C)C)NC(=O)[C@H](CC(C)C)NC(=O)[C@H](CCCCN)NC2=O)C(=O)N[C@@H](CC(C)C)C(=O)N[C@@H](CC(C)C)C(=O)N[C@@H](CC(C)C)C(=O)N1)C(N)=O | – | PAO1 | 18 h | 32 µg/mL
c1ccc(CSc2nc3ccccc3cc2CNCCC2CCN(C3CCCC3)CC2)cc1 | microbial growth, broth dilution | MDR | – | 32 µg/mL
CC(C)C[C@@H]1NC(=O)[C@H](CC(C)C)NC(=O)[C@H](CCCCN)NC(=O)CSC[C@@H]2NC(=O)[C@H](CC(C)C)NC(=O)[C@H](CC(C)C)NC(=O)[C@H](CCCCN)NC(=O)[C@H](CCCCNC1=O)NC(=O)[C@H](CC(C)C)NC(=O)[C@H](CC(C)C)NC(=O)[C@H](CCCCN)NC(=O)CSC[C@@H](C(=O)N[C@@H](CCCCN)C(N)=O)NC(=O)[C@H](CCCCN)NC(=O)[C@H](CC(C)C)NC(=O)[C@H](CCCCN)NC2=O | – | PAO1 | 18 h | > 256 µg/mL
CCCCCCCCCCCC(=O)NCCCC[C@H](N)C(=O)N[C@@H](CCCNC(=N)N)C(=O)N[C@@H](CCCNC(=N)N)C(=O)N[C@@H](CCCNC(=N)N)C(=O)N[C@@H](CCCNC(=N)N)C(=O)N[C@@H](CCCNC(=N)N)C(=O)O | broth microdilution | PAO1 | 37 °C | > 139 µg/mL
